Experimental data from different studies.
Every numbered part comes from another study and shows a few of its results, in no order.

Block 1 — technique: protein binding microarray; molecule type: double-stranded DNA, one strand shown; matrix: in vitro; tested at: not given; relative to: not given; reading: higher = stronger binding; measurement: E-score
Target: Histone acetyltransferase KAT6A, winged helix 1, GST fusion (KAT6A, Homo sapiens, UniProt Q92794, residues 1-85)
Setting: 8-mer, flanks averaged, mean of 2 arrays, mostly near background
Target sequence (chain): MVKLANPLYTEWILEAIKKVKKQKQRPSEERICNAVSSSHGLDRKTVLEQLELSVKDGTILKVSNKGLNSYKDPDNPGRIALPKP
AACATGTT: 0.0108
CCTACGAG: -0.135
CACCGTAC: 0.183
CTCCCATC: -0.124
CTGATACC: -0.116
GCTGAAAA: -0.124
CAAAAAGA: -0.209

Block 2 — technique: universal PBM; molecule type: double-stranded DNA, one strand shown; matrix: in vitro; tested at: not given; reading: higher = stronger binding; measurement: E-score
Target: Sal-like protein 4, full length isoform B (SALL4, Homo sapiens, UniProt Q9UJQ4-2, residues 1-616)
Setting: 8-mer, flanks averaged, mean of replicates
CAACTGAC: -0.111
AACGCCTG: -0.0664
CAGCAGCC: -0.227
ACAAACGA: 0.149
CCGACAGA: -0.141
GATTCACC: -0.222
TAAGTTAA: 0.272
AGGTTTTC: 0.0959
AAGTGCTA: 0.204
ACAATTCG: 0.0382

Block 3 — technique: RNAcompete; molecule type: RNA; matrix: in vitro; tested at: 20 nM; setting: 7-mer, probes averaged, single round; relative to: mean of 7-mers; reading: higher = stronger binding; measurement: 7-mer Z-score
Target: PABPC1L2, full length, GST fusion (mouse, UniProt A0ABA7IW68)
Target sequence (chain): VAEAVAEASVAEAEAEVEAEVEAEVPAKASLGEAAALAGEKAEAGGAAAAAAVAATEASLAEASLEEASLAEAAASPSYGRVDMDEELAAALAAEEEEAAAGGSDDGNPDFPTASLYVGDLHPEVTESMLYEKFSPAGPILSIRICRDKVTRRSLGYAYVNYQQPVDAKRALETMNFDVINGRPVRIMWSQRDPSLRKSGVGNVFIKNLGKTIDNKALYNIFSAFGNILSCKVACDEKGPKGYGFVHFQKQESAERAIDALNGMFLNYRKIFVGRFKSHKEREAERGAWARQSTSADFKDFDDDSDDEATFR
UUCAUUC: -0.394
CCUAUUA: -0.289
GGGGACG: 0.36
AUUAGCC: -0.209
AGCUUAU: -0.248
ACUCAAU: -0.255
AAUCAAA: 1.14

Single results of other studies
PhoQ, residues 284 288 289 292 302 303 NLCILV  fold induction (PhoP, residues 12 14 15 18 19 AYFRS (Escherichia coli, UniProt P23836); Sort-seq, item: YFP reporter; E. coli; PhoQ-PhoP variant library, with: 10 µM Mg2+; relative to: high Mg2+ state, higher = stronger signaling): 14.9

Excerpt of the above (block 2):
AAGTGCTA: 0.204
ACAATTCG: 0.0382
